Published values from different studies.
Compare with care: the assays were run in different laboratories.
Target: Cytochrome P450 1A2 (CYP1A2, Homo sapiens, UniProt P05177)
UniProt P05177, sequence (whole entry, looked up): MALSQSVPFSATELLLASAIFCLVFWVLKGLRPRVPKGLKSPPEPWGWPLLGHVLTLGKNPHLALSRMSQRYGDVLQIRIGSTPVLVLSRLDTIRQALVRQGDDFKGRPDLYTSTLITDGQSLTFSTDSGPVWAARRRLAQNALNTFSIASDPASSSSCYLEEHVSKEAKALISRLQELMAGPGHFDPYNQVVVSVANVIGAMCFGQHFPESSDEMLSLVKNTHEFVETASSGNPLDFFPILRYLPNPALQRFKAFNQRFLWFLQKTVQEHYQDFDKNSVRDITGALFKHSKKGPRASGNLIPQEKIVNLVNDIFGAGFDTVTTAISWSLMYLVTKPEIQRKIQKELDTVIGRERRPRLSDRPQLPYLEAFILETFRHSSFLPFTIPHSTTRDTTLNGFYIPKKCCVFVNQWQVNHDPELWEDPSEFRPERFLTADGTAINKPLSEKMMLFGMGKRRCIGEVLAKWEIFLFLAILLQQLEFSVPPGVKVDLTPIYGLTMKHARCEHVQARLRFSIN

Compound	test	test system	setting	IC50 [µM]
C[C@H]1CN(C(=O)c2cn(-c3ccnc(N)n3)c3cc(C#CC4(O)CCCCC4)ccc23)CCN1	enzyme activity, inhibitor	human, liver microsomes	10 min	> 50
O=C(NC1CCC(F)(F)CC1)C(c1cncnc1)N(C(=O)C(F)Cl)c1ccc(OC(F)(F)F)cc1 (stereo not shown)	enzyme activity, inhibitor		10 (unit not given)	> 50
CC(C)(C)n1ncc2c(=O)n(Cc3cccc(F)c3)c(NCc3ccc(F)cn3)nc21	enzyme activity, inhibitor	human liver		> 15
Cc1[nH]nc2c1N=C(c1ccccc1Cl)c1cnc(N3CCOCC3)cc1N2	enzyme activity, inhibitor	human, liver microsomes		> 10
COc1ccc(-c2coc3cc(O)cc(O)c3c2=O)cc1	enzyme activity, inhibitor	human, liver microsomes	15 min	72.7
N=C(N)SCc1ccccc1CSC(=N)N	enzyme activity, inhibitor			> 10
C=C(NC(=O)c1csc(-c2nc3c(cc2O)-c2nc(cs2)C(=O)NC(C(C)O)C(=O)NC(=C(C)OC)c2nc(cs2)C(=O)NC2c4nc(cs4)C(=O)NC(COC(=O)c4c5c6c(cccc6n4O)COC(=O)C(OC4CC(C)(O)C(N(C)C)C(C)O4)C2OC5)c2nc-3cs2)n1)C(N)=O (stereo not shown)	enzyme activity, inhibitor		pH 7.4	> 50
OCC1OC(n2cnc3c(NCc4ccc(Br)s4)ncnc32)C(O)C1O (stereo not shown)	enzyme activity, inhibitor, fluorescence		pH 7.4, with: 3-cyano-7-ethoxycoumarin	> 10
NC(=O)c1ccc(C(=O)NOCc2ccc(Sc3cccc(Cl)c3)c(C(F)(F)F)c2)cc1		pooled human liver microsomes	20 min	> 30
COc1ccc2c(c1OC)O[C@H]1c3ccc(O)cc3OC[C@@H]21	enzyme activity, inhibitor	human, liver microsomes	15 min	149

Excerpt of the above:
Compound	test	test system	setting	IC50 [µM]
COc1ccc(-c2coc3cc(O)cc(O)c3c2=O)cc1	enzyme activity, inhibitor	human, liver microsomes	15 min	72.7
